Measurements gathered from unrelated publications.
Compare with care: the assays were run in different laboratories. Numbers after ± are the reported error.

For `NCC(=O)Nc1ccc(Sc2ccc3c(/C=C/c4ccccn4)n[nH]c3c2)cc1`, the GI50 was 2890 nM (Ba/F3 TEL-VEGFR3; cell growth, CCK-8).
`COc1ccc(NC(=O)c2ccc3[nH]c(-c4ccc(N(C)C)cc4)nc3c2)cn1` has a GI50 of 6890 nM (Y79; cell growth, CellTiter-Glo).
For `CSc1cc(C)[nH]c(=O)c1CNC(=O)c1cc(Cl)c2c(c1C)OC(C)(C1CCC(N(C)C)CC1)O2` (stereo not shown), the GI50 was 4 nM (KARPAS-422; cell growth or viability; 8 days).
`N#C[Se]CCCCCCOc1ccc2c(-c3ccccc3)cc(=O)oc2c1` gave a GI50 of 4700 nM (SW1573; cell growth or viability, SRB).
`O=C(CC(=O)Nc1ccc2[nH]nc(/C=C/c3ccccn3)c2c1)Nc1cccc(F)c1` has a GI50 of 2000 nM (Ba/F3 TEL-VEGFR3; cell growth, CCK-8).
`Cc1c(Cl)c(=O)oc2cc(OCCCCCCSC#N)ccc12` gave a GI50 of 13000 nM (SW1573; cell growth or viability, SRB).
The GI50 of `CSc1cc(C)[nH]c(=O)c1CN1CCc2c(Cl)c3c(c(C)c2C1=O)OC(C)(C1CCC(N(C)C)CC1)O3` (stereo not shown) is reported as 4.8 nM (KARPAS-422; cell growth or viability; 8 days).
The GI50 of `COc1cccc(C(=O)Nc2ccc(Sc3ccc4c(/C=C/c5ccccn5)n[nH]c4c3)cc2)c1` is reported as over 10000 nM (Ba/F3 TEL-VEGFR3; cell growth, CCK-8).
`CCN(C(=O)c1cc(F)ccc1Oc1nncnc1N1CCC2(C1)CN([C@H](CCCN(C)CCOC)C(C)C)C2)C(C)C` has a GI50 of over 10000 nM (PLC-PRF-5; cell growth or viability; 72 h).
The GI50 of `CCc1cc(N2C(=S)N(c3ccc(C#N)c(C(F)(F)F)c3)C(=O)C2(C)C)ccc1OCCN1CCN(CC(=O)Nc2cccc(NC3CCC(=O)NC3=O)c2)[C@H](C)C1` (stereo partly shown) is reported as 583 ± 203 nM (LNCaP CRBN knockout; androgen-stimulated proliferation, CellTiter-Glo; 168 h).

For quick reference, copied from above:
The GI50 of `CCc1cc(N2C(=S)N(c3ccc(C#N)c(C(F)(F)F)c3)C(=O)C2(C)C)ccc1OCCN1CCN(CC(=O)Nc2cccc(NC3CCC(=O)NC3=O)c2)[C@H](C)C1` (stereo partly shown) is reported as 583 ± 203 nM (LNCaP CRBN knockout; androgen-stimulated proliferation, CellTiter-Glo; 168 h).
